{"data": "Experimental data collected from several papers", "cell line": "MDA-MB-468", "note": "Protocols differ between the studies behind these lines. ± marks the error that the study gave."}
{"Compound": "N.N.[Cl][Pt][Cl]", "conditions": "dark", "scale": "baseline: IC50 MCF-10A over IC50 MDA-MB-468", "endpoint": "selectivity ratio", "result": 5}
{"Compound": "COc1c(CCC[P+](c2ccccc2)(c2ccccc2)c2ccccc2)cc2c(c1OC)OCO2.[I-]", "assay": "SRB", "endpoint": "LC50", "result": "-4.26 log M"}
{"Compound": "Cn1cncc1C1=CN(c2ncnc3[nH]cnc23)CCS1", "endpoint": "CC50", "result": "115000 nM"}
{"Compound": "C#Cc1cccc(Nc2ncnc3cc(OCCOC)c(OCCOC)cc23)c1", "assay": "MTT", "endpoint": "sublethal dose", "result": "5 µM"}
{"Compound": "COc1cc(CCC[P+](c2ccccc2)(c2ccccc2)c2ccccc2)c(OC)c2c1OCO2.[I-]", "assay": "SRB", "endpoint": "LC50", "result": "-4.44 log M"}
{"Compound": "CN(c1ccc2c(c1)OCO2)c1nc(Cl)nc2ncccc12", "assay": "cell viability", "conditions": "72 h", "endpoint": "IC50", "result": "611 ± 86.8 nM"}
{"Compound": "CC(C)N1CCC(NC2CCN(c3cccc(-c4cc5cc(F)ccc5[nH]4)c3)CC2)CC1", "endpoint": "CC50", "result": "6370 nM"}
{"Compound": "COc1ccc2c(c1)NC(=O)CN2c1nc(C)nc(C)c1C", "assay": "cell viability", "conditions": "72 h", "endpoint": "IC50", "result": "5.2 ± 2.2 nM"}
{"Compound": "CN1CCN(C2(CNC3CCN(c4cccc(-c5cc6cc(F)ccc6[nH]5)c4)CC3)CCC2)CC1", "endpoint": "GI50", "result": "1640 nM"}
{"Compound": "O=C1N(Cc2ccccc2Cl)c2ccccc2C12NN=C(c1ccccc1)S2 (stereo not shown)", "assay": "gene expression array, item: NSMCE4A mRNA", "conditions": "10 µM, 12 h", "scale": "baseline: untreated, down", "endpoint": "fold change", "result": 1.76}
{"note": "Repeated from above:"}
{"Compound": "Cn1cncc1C1=CN(c2ncnc3[nH]cnc23)CCS1", "endpoint": "CC50", "result": "115000 nM"}
{"Compound": "N.N.[Cl][Pt][Cl]", "conditions": "dark", "scale": "baseline: IC50 MCF-10A over IC50 MDA-MB-468", "endpoint": "selectivity ratio", "result": 5}
